Published values gathered from unrelated publications.
Every numbered part comes from another study and shows a few of its results, in no order. ± marks the error that the study gave.
Sequence of UniProt Q15569 (whole entry, looked up): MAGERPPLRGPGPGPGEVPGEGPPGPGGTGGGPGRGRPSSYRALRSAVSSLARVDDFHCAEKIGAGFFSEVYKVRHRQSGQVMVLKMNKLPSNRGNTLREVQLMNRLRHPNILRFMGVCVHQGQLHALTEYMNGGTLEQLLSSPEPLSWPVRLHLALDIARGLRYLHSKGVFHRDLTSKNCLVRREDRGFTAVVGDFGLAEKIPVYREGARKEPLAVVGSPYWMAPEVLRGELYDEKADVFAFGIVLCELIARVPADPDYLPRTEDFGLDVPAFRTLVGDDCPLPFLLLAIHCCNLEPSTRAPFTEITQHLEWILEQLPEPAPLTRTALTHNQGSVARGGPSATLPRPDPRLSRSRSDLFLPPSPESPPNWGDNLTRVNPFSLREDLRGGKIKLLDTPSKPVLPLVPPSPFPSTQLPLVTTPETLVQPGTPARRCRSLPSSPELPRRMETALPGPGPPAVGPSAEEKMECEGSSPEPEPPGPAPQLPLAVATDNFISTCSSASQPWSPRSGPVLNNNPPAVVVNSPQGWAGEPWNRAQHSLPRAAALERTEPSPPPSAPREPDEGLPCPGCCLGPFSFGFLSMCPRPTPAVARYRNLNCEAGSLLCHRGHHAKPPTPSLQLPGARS
Sequence of UniProt P49760 (whole entry, looked up): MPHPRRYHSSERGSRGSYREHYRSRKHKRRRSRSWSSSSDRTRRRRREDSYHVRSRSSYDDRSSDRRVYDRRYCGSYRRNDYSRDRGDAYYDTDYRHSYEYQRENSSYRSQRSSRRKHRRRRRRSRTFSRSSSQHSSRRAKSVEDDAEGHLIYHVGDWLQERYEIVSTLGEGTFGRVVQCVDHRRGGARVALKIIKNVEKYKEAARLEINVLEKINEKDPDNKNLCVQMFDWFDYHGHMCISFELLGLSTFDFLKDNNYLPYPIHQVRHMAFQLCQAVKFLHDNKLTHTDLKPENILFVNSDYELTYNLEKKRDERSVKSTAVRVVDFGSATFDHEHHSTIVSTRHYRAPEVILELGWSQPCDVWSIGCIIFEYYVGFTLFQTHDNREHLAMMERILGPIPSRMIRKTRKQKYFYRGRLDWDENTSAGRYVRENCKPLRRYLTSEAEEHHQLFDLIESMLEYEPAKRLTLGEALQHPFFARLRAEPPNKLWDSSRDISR
Sequence of UniProt Q8WU08 (whole entry, looked up): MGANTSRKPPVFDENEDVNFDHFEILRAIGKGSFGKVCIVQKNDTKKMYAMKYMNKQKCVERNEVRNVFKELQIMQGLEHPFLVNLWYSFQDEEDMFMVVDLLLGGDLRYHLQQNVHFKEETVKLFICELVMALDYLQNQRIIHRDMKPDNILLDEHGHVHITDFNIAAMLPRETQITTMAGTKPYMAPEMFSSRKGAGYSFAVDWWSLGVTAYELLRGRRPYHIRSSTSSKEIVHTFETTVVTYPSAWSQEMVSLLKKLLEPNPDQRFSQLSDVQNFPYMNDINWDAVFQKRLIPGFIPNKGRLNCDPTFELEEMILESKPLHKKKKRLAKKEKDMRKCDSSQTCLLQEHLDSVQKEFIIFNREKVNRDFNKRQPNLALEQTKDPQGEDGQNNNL
Sequence of UniProt P57059 (whole entry, looked up): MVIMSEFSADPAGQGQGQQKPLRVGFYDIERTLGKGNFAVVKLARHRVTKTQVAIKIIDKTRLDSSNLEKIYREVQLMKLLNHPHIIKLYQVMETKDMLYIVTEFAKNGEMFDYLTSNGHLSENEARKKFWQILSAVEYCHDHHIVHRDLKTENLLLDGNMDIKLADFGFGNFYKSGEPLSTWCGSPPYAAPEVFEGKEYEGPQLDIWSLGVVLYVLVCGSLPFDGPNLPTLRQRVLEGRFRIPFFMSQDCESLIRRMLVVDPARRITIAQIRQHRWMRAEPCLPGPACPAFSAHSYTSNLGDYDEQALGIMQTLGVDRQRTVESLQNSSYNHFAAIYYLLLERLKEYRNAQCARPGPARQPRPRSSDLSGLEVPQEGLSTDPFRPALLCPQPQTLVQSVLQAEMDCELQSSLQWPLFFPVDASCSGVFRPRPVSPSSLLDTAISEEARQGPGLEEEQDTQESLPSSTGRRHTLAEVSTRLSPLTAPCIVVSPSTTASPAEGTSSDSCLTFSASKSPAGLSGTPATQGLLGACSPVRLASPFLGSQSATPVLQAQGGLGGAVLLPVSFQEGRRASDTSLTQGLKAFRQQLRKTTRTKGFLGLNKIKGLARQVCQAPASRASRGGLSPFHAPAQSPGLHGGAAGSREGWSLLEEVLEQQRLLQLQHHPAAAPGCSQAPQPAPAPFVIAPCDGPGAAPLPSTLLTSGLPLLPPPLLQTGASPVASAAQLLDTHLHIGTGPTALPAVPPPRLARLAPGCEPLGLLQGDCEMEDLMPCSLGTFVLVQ
Sequence of UniProt Q8IW41 (whole entry, looked up): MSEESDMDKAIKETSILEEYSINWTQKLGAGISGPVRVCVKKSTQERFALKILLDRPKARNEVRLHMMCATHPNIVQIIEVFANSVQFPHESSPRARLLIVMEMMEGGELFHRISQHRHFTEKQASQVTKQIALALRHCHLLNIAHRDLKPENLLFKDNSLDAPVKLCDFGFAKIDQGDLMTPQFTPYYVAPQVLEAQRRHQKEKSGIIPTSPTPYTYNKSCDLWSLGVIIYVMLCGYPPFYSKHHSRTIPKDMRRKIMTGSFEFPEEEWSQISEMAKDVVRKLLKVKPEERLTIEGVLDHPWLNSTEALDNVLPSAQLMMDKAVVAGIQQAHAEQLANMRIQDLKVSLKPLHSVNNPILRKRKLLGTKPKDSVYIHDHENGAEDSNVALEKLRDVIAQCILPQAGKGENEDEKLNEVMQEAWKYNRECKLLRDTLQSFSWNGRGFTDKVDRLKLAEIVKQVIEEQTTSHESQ
Sequence of UniProt Q14012 (whole entry, looked up): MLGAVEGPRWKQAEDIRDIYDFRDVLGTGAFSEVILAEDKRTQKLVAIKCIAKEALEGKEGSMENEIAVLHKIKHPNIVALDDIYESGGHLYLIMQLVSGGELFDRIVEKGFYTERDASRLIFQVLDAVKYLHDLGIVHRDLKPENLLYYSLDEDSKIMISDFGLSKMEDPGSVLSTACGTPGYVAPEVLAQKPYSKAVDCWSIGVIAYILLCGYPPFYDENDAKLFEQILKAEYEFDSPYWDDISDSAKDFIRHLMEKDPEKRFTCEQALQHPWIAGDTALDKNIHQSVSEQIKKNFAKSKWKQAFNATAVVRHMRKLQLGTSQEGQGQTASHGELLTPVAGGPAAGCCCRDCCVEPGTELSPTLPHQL

Set 1
SMILES: Cn1nc(C(F)(F)F)cc1-c1cnc(N2CCc3cc(S(=O)(=O)Nc4c(F)cc(Cl)cc4F)cc(N4CCCC4=O)c32)nc1
Concentration: 1 µM
target	test	remaining binding
MAP kinase-activated protein kinase 5 (MAPKAPK5, Homo sapiens, UniProt Q8IW41)	cell-free assay, competition with immobilised ligand	95%
Epidermal growth factor receptor (EGFR, Homo sapiens, UniProt P00533, L858R/T790M)	cell-free assay, competition with immobilised ligand	100%
Serine/threonine-protein kinase 32A (STK32A, Homo sapiens, UniProt Q8WU08)	cell-free assay, competition with immobilised ligand	78%
Calcium/calmodulin-dependent protein kinase type 1 (CAMK1, Homo sapiens, UniProt Q14012)	cell-free assay, competition with immobilised ligand	95%
Serine/threonine-protein kinase SIK1 (SIK1, Homo sapiens, UniProt P57059)	competition binding	100%
Dual specificity protein kinase CLK2 (CLK2, Homo sapiens, UniProt P49760)	cell-free assay, competition with immobilised ligand	86%

Set 2
Target: RNA binding protein fox-1 homolog 2, RRM domain, GST-SBP tag (RBFOX2, Homo sapiens, UniProt O43251-10, residues 100-194)
Technique: RNA Bind-n-Seq
Form: RNA
Matrix: in vitro
Concentration: 365 nM
Notes: natural RNA segment, single round, ends assumed
Reference: no-protein control
Direction: higher = stronger binding
Oligonucleotide	RBNS enrichment (R)
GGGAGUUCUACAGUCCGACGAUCUUUCCUGAAGUAUUCUGAUAAAUGUGUUUUUUAAAACCUCAAUAUACUUUUUAGAAAAGGAGCAUCUGGUUAUGCAUAAAGCAGAGCUAAAACUAAAUUUCUUUCAUGUCUGGAAUUCUCGGGUGCCAA	0.462
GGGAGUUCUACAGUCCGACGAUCACUGGGCCGGCCACAGUCUGGACCCGCACGUCCUGUUCAAAAGCAGACUCGGGAACUGCCUGAAUGUGGUUUGGGACACGAGACCUCAUCAUAUUGAUGAGCGAACAAACUGGAAUUCUCGGGUGCCAA	1.04
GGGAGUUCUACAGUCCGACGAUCGCCACCAAUUGUAGUGACCAGUUGCCUAAUGGUCACUUUCUGACUCCAGCCUUGCCAGCCUGACUCAGAUCCUCAUCUCUGGGCCUUUCUCCCUCCGAUGUUGGACUGCCUGGAAUUCUCGGGUGCCAA	0.7
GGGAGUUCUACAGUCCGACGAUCCCUAUAAAAAAUUUUAUUGAUGUUUAUGGUCAUGUUAGCUAUCAGAGAGCUAUUGGAGUGAGAGCUGAGGUGUCCUUAACCACUUUUUCUCUCCUAGAUUCAUUUUCAUUUGGAAUUCUCGGGUGCCAA	0.828
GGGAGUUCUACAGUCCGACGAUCUAAGAGGUGACCCUGUGUUUUUUGUGAUAUUGAGGCAUUCAUACAGAGCUGCAGUUAGACGGGGUUACGGGGGCUAAAAGCAGAAAAAAAAUUCCAUUUCAUCGGGAUGGUGGAAUUCUCGGGUGCCAA	0.697
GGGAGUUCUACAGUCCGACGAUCAGCCUUGUAGCAGGCUUUGGUGACUGUGUUUAUGGAUAGGUCAAGUUUACUGCAAGACAGCUGCGCUGUCAAGACUGAGCUGGCUUCAGGCUGUGUCCGAGCUGUGUCACUGGAAUUCUCGGGUGCCAA	0.657
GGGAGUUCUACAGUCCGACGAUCGCACCACAGCAUGUUGUUAUGUGAGGAGGCAAUCUGGAUAGCAAGCAUGUACCACAAAACAGUAGUACUUUAACCCCUAAUGCCACGUCUCCCCAUCAGCUGCCGGUUUUUGGAAUUCUCGGGUGCCAA	4.86
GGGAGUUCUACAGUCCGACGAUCCACUUAGCCCUGGUUGAGGUGCAUUGUCUGCUGUCGUCUGUUAAGCAUCUAACCGGAGUGGGAGGGCACAUCAAGCGAUUUCACUCUCUUAAAGAAAAGGUUUUUAGGUAUGGAAUUCUCGGGUGCCAA	0.543

Single results of other studies
Structure (SMILES)	tested on	test	test system	conditions	measurement	result
CC(C)(C)c1nc(-c2cccc(NS(=O)(=O)c3c(F)cccc3F)c2F)c(-c2ccnc(N)n2)s1	–	necroptosis, inhibitor, CCK-8	L929, mouse	with: TNF-α	EC50	31 µM
CC(C)(C)c1nc(-c2cccc(NS(=O)(=O)c3c(F)cccc3F)c2F)c(-c2ccnc(N)n2)s1	Dual specificity testis-specific protein kinase 1 (TESK1, Homo sapiens, UniProt Q15569)	kinase-HSP90-CDC37 interaction	human cells	–	EC50	0.04 µM
Cc1ccc(O)cc1Nc1ccnc2cc(-c3ccccn3)ccc12	–	necroptosis, inhibitor, CCK-8	L929, mouse	with: TNF-α	EC50	8.41 µM
COc1cc(C(=O)N2CCC(N3CCN(C)CC3)CC2)ccc1Nc1ncc2c(n1)N(C)c1ccccc1C(=O)N2C	MNK2	kinase activity	–	1 µM	remaining activity	72 ± 2%

For quick reference, copied from above (single results of other studies):
Structure (SMILES)	tested on	test	test system	conditions	measurement	result
CC(C)(C)c1nc(-c2cccc(NS(=O)(=O)c3c(F)cccc3F)c2F)c(-c2ccnc(N)n2)s1	Dual specificity testis-specific protein kinase 1 (TESK1, Homo sapiens, UniProt Q15569)	kinase-HSP90-CDC37 interaction	human cells	–	EC50	0.04 µM
CC(C)(C)c1nc(-c2cccc(NS(=O)(=O)c3c(F)cccc3F)c2F)c(-c2ccnc(N)n2)s1	–	necroptosis, inhibitor, CCK-8	L929, mouse	with: TNF-α	EC50	31 µM
